Assay results collected from several papers.
A part holds a random share of what one study measured.

Block 1 — effect on: enzyme activity; action: inhibitor; tested at: 20 µM
Target: Replicase polyprotein 1ab, polymerase (rep, Severe acute respiratory syndrome coronavirus 2, UniProt P0DTD1)
| Structure (SMILES) | inhibition [%] |
| --- | --- |
| CCNC(=O)CC[C@H](N)C(=O)O | -0.45 |
| Cn1c(C#N)ccc1-c1ccc2c(c1)C(C)(C)OC(=S)N2 | -3.87 |
| Nc1nc(=O)n([C@H]2C[C@H](O)[C@@H](CO)O2)cc1Cl | 0.46 |
| N=C(NCc1ccc(Cl)cc1)SCCCc1c[nH]cn1 | -9.78 |
| CN(C)CCC(c1ccccc1)c1ccccn1 (stereo not shown) | 17.8 |
| CNC(=O)c1ccc(N2C(=S)N(c3cnc(C#N)c(C(F)(F)F)c3)C(=O)C23CCC3)cc1F | -3.16 |
| CNNCc1ccc(C(=O)NC(C)C)cc1 | 0.45 |
| CCOC(=O)[C@H](CCc1ccccc1)N[C@@H](C)C(=O)N1CCC[C@H]1C(=O)O | 26.8 |
| O=C(/C=C/c1ccc(O)c(O)c1)OCCc1ccccc1 | -1.75 |
| CC(=O)N[C@@H](CSSC[C@H](NC(C)=O)C(=O)O)C(=O)O | 1.98 |
| Nc1ncn([C@@H]2O[C@H](CO)[C@@H](O)[C@H]2O)c(=O)n1 | -8.1 |
| CO/N=C1\C[C@]2(C[C@@H]3C[C@@H](C/C=C(\C)C[C@@H](C)/C=C/C=C4\CO[C@@H]5[C@H](O)C(C)=C[C@@H](C(=O)O3)[C@]45O)O2)O[C@H](/C(C)=C/C(C)C)[C@H]1C | -11 |
| O=C(Nc1ccccc1)N1CCC(Cc2cnc3ccccc3c2)CC1 | 8.05 |
| C[C@H]1COC2=C1C(=O)C(=O)c1c2ccc2c1CCCC2(C)C | 13.4 |
| CCCCN(CCCC)C(=O)CN1C[C@H](c2ccc3c(c2)OCO3)[C@@H](C(=O)O)[C@@H]1c1ccc(OC)cc1 | -2.63 |
| OCCNC1CCCc2c1[nH]c1ccc(-c3ccccc3)cc21 (stereo not shown) | -4.74 |
| COc1ccc(Cc2nn3c([C@@H](CCCc4ccccc4)[C@@H](C)O)nc(C)c3c(=O)[nH]2)cc1OC | -1.42 |
| CC(NC(=O)c1ccccc1/N=C/c1c(O)ccc2ccccc12)c1ccccc1 (stereo not shown) | 0.8 |
| CC(C)(N)C(=O)N[C@H](COCc1ccccc1)C(=O)N1CCC2(CC1)CN(S(C)(=O)=O)c1ccccc12 | -0.59 |
| CC(C)[C@@H](C)/C=C/[C@@H](C)[C@H]1CC[C@H]2C3=CC=C4C[C@@H](O)CC[C@]4(C)[C@H]3CC[C@]12C | -13.2 |

Block 2 — cell line: HEK-293T/ACE2; tested at: concentration not given; time: 16 (unit not given); reference: vehicle
| Structure (SMILES) | viability |
| --- | --- |
| CC1(C)O[C@@H]2C[C@H]3[C@@H]4CCC5=CC(=O)CC[C@]5(C)[C@@]4(F)[C@@H](O)C[C@]3(C)[C@]2(C(=O)CCl)O1 | 94.8% |
| CN(Cc1cnc2nc(N)nc(N)c2n1)c1ccc(C(=O)N[C@@H](CCC(=O)O)C(=O)O)cc1 | 88.3% |
| OC[C@@H](O)[C@@H](O)[C@H](O)[C@H](O)CO | 101% |

Block 3 — technique: protein-binding microarray; molecule type: double-stranded DNA, one strand shown; matrix: in vitro; tested at: 940 nM top; notes: 60-bp whole probe; added: salmon DNA 0.4 mg/ml; reference: random background probes; reading: higher = stronger binding; shared flanks, not repeated: GCCTAGCAC … GTCTTGATTCGCTTGACGCTGCTG
Target: Interferon regulatory factor 5, full length, phosphomimetic (IRF5, Homo sapiens, UniProt Q13568-2, residues 1-514, S451D/S453D/S456D/S462D)
| Strand | fitted relative affinity [z-score] |
| --- | --- |
| GACTTTTTAGATTTTTTTTCGTGCTAG | 1.03 |
| GACCGTCTCCTTATCCTGACGTGCTAG | 0.451 |
| GACGGTTTCGTTTTCCTGACGTGCTAG | 9 |
| TTAGGTTTGGGTCTCGGTTAGTGCTAG | 2.12 |
| GACGGACTGCTACTGCTGAGGTGCTAG | -0.525 |
| TTAGATATCGGGACTGGATGAGTGCTA | -0.292 |
| GACGGTTTCGACTTTCGGGAGGTGCTA | 7.66 |
| GACGGTATCGACTATCAGGACGTGCTA | 4.37 |

Block 4 — technique: protein binding microarray; molecule type: double-stranded DNA, one strand shown; matrix: in vitro; tested at: not given; reference: not given; reading: higher = stronger binding
Target: Histone acetyltransferase KAT6A, winged helix 1, GST fusion (KAT6A, Homo sapiens, UniProt Q92794, residues 1-85)
Notes: 8-mer, flanks averaged, mean of 2 arrays, mostly near background
Residues (chain): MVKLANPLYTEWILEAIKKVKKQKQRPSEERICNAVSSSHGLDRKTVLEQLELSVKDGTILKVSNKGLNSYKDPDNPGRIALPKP
| Strand | E-score |
| --- | --- |
| CATGTCCA | -0.162 |
| CGTAAAGA | 0.147 |
| TTCCGGAA | -0.025 |
| GAAGAACC | -0.0677 |
| AAGCTCAC | -0.0683 |
| ATATTAGG | -0.18 |
| ACGGGAAT | 0.323 |
| ACAATAAA | -0.162 |

Single results of other studies
| Structure (SMILES) | organism | effect on | cell line | endpoint | result |
| --- | --- | --- | --- | --- | --- |
| CC(C)C[C@@H](C=O)NC(=O)[C@H](CC(C)C)NC(=O)[C@H](CC(C)C)NC(=O)OCc1ccccc1 | SARS-CoV-2 | viral RNA reduction | Vero E6 | EC50 | 100 nM |

For quick reference, copied from above (block 1):
| Structure (SMILES) | inhibition [%] |
| --- | --- |
| CCNC(=O)CC[C@H](N)C(=O)O | -0.45 |
| C[C@H]1COC2=C1C(=O)C(=O)c1c2ccc2c1CCCC2(C)C | 13.4 |
| CN(C)CCC(c1ccccc1)c1ccccn1 (stereo not shown) | 17.8 |
